Assay results gathered from unrelated publications.
± marks the error that the study gave.

Chains of the proteins cited; added tags and fusions are not shown. Residues count along the entry.
UniProt P55201, whole entry: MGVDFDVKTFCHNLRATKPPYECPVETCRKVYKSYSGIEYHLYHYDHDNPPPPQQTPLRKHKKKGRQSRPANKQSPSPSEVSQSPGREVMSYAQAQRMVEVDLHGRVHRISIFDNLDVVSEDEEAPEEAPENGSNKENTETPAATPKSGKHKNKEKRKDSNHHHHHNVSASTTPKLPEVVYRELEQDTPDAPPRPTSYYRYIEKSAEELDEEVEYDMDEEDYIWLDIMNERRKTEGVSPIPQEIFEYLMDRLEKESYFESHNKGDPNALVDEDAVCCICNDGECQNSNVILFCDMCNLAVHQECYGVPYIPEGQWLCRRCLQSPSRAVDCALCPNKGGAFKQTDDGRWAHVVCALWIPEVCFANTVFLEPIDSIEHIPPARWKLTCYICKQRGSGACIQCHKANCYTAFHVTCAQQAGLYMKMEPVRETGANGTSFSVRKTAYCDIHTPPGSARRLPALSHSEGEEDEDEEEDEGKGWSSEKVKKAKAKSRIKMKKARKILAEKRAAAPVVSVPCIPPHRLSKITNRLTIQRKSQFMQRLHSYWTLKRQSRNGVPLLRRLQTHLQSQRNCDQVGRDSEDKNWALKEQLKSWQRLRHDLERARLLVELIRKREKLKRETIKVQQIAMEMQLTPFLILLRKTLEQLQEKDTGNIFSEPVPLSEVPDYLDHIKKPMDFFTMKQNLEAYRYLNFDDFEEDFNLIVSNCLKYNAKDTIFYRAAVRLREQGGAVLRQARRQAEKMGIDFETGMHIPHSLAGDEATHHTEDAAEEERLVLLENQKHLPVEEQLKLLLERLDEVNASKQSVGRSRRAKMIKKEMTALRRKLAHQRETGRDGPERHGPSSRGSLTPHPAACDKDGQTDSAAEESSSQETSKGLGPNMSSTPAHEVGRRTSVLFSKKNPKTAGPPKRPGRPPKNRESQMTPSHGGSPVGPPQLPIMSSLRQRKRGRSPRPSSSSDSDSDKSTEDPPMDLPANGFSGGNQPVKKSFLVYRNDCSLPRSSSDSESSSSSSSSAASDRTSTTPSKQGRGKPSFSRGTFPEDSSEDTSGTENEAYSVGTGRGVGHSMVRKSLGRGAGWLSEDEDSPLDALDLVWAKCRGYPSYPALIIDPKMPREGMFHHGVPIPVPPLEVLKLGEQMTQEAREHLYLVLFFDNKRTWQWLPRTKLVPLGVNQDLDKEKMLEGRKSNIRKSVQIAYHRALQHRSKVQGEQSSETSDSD
UniProt P10721, 589-937 limits assumed: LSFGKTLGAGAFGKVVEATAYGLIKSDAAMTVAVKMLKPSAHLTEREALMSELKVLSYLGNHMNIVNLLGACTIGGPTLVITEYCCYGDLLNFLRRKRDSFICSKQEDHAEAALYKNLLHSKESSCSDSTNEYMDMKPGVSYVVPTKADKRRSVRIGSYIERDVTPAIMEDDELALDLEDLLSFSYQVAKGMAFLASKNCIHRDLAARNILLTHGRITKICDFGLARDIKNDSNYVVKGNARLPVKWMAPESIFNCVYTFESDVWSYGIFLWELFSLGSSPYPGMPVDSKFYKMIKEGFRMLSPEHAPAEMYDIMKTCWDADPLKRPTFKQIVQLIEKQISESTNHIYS
UniProt P48730, whole entry: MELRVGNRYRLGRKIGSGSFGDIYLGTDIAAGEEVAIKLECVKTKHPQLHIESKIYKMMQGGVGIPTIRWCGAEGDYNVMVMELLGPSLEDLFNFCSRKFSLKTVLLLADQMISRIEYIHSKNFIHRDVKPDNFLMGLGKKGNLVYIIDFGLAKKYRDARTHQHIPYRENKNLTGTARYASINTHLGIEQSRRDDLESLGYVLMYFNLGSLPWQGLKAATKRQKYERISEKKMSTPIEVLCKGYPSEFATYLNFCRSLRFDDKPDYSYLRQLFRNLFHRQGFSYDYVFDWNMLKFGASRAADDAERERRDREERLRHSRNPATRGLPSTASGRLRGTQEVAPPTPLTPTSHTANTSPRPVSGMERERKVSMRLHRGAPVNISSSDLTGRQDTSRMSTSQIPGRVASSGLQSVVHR

For O=C(Nc1cccnn1)N1CC(Oc2ccc(-c3ccccc3F)cn2)C1, “time to return to baseline” read 72 h (refers to: plasma endocannabinoids; human, plasma; oral, single dose).
The delta Tm of CC[C@@H]1C(=O)N(C)c2cnc(Nc3ccc(C(=O)NC4CCN(C)CC4)cc3OC)nc2N1C1CCCC1 is reported as 1.57 ± 0.42 °C (Peregrin, bromodomain (BRPF1, Homo sapiens, UniProt P55201); 10 µM).
With O=C1CCC(N2C(=O)c3cccc(NCCOCCOCCOCCN4CCN(c5ccc(-c6ccc7c(c6)C(=O)N(C(C(=O)Nc6nccs6)c6ccccc6)C7)cn5)CC4)c3C2=O)C(=O)N1 (stereo not drawn) the EC50 was 28 nM (Ba/F3 EGFR L858R/T790M/L718Q; cell proliferation).
For CCN1CCN(Cc2ccc(NC(=O)c3ccc(C)c(Oc4ncnc5cc(OC)c(OC)cc45)c3)cc2C(F)(F)F)CC1, “residual probe binding” read 0.8% (KIT (Homo sapiens, UniProt P10721); KINOMEscan competition binding; 1.0 µM).
Under “surface integrin alpha-5 level”, Cc1ccc([C@H](CC(=O)O)NC(=O)Nc2c(O)c(C)cn(Cc3ccccc3Cl)c2=O)cc1 is recorded as “no effect” (B-ALL cells; flow cytometry; 1 to 25 µM, 24 to 96 h).
For Cc1cccc(NC(=O)c2nn(Cc3cnc[nH]3)c3c2CN(C(=O)c2ccc[nH]2)CC3)c1, the G0-phase cells was 65.7 ± 6.5% (IDH1 R132G AML cells; Hoechst/Pyronin Y staining; 3 µM, 7 days).
The GI50 of CC(C)c1cc2c(N3CCN(C4=NCC(C)(C)S4)CC3)ncnc2s1 is reported as ~5000 nM (MLL-ENL transduced mouse BMC; cell growth, MTT).
COc1cc(CC(=O)NCC(NC(=O)C(CCCNC(=O)c2cccc(I)c2)NC(=O)C(Cc2ccc(C(F)(F)P(=O)(O)O)cc2)NC(=O)c2ccc(C)c(Br)c2)C(N)=O)ccc1O (stereo not drawn): “Akt Ser473 phosphorylation” 3.1 fold (primary mouse hepatocytes; Western blot; 100 nM, added: insulin 5 nM, 5 min; relative to: insulin alone).
With Cc1c(O)cc2c(c1C)O[C@](C)(CCCC(C)C)CC2 the membrane-associated PDK1 was ~50% (LNCaP; immunocytochemistry; 25 µM, 6 h).
Fc1cccc(-n2cnc3c(NCc4nc5cc(Cl)ccc5[nH]4)nc(N4CCNCC4)nc32)c1 has a remaining binding of 1.6% (CSNK1D (Homo sapiens, UniProt P48730); KINOMEscan competition binding; 10 µM; relative to: control).
Nc1c(C(=O)Nc2c(F)cc(F)cc2Br)sc2nc3c(cc12)CCC3 — result for protein phosphorylation: “increased” (H1299; refers to: p-AMPK and p-ACC1; concentration not given, 12 h).
C[C@]12CCC(=O)C=C1CCC1C2CC[C@]2(C)C(n3cnc4ccccc43)=CCC12 (stereo partly drawn) gave an IC50 of 3000 nM (LAPC4; cell proliferation, MTT; 7 days, without DHT).

Repeated from above:
For CCN1CCN(Cc2ccc(NC(=O)c3ccc(C)c(Oc4ncnc5cc(OC)c(OC)cc45)c3)cc2C(F)(F)F)CC1, “residual probe binding” read 0.8% (KIT (Homo sapiens, UniProt P10721); KINOMEscan competition binding; 1.0 µM).
